Measurements of several laboratories.
A part holds a random share of what one study measured. Substitutions count along the parent as printed.

Study 1
Target: ABI1, truncated, D143A, DHFR fusion (Arabidopsis thaliana)
Method: DHFR PCA, deep sequencing
Matrix: yeast
Setting: methotrexate growth selection, single substitutions
Added: (+)-ABA 0.0091 µM
Relative to: wild-type fitted maximum
Direction: higher = stronger binding
Endpoint: relative binding score
Parent: PYL1, truncated, DHFR fusion (Arabidopsis thaliana); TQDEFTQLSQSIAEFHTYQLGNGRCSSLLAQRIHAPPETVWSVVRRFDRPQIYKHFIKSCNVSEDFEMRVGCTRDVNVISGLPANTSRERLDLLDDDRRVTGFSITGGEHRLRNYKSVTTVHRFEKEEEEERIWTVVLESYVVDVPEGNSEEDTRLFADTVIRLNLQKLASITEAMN
Change = F47D; result = -0.383%
Change = T17A; result = 8.81%
Change = M176H; result = -2.9%
Change = G148N; result = 15.9%
Change = C25V; result = 65.1%
Change = E64I; result = 1.77%
Change = V121D; result = 1.17%
Change = S42I; result = -3.35%

Study 2
Target: Sal-like protein 4, full length isoform B (SALL4, Homo sapiens, UniProt Q9UJQ4-2, residues 1-616)
Method: universal PBM
Form: double-stranded DNA, one strand shown
Matrix: in vitro
Concentration: not given
Setting: 8-mer, flanks averaged, mean of replicates
Direction: higher = stronger binding
Endpoint: E-score
Strand = CGCTTCAC; result = -0.142
Strand = CGAGATAA; result = 0.1
Strand = AAAGGTGC; result = -0.0394
Strand = AGTCTTAG; result = -0.178
Strand = TCGGTCAA; result = -0.0799
Strand = ACCGTAGA; result = 0.0138
Strand = GTGAGGCA; result = -0.168
Strand = GCCTCTGA; result = -0.181

Other studies, line by line
P1: PafA, mature enzyme, eGFP fusion (Elizabethkingia meningoseptica, UniProt Q9KJX5); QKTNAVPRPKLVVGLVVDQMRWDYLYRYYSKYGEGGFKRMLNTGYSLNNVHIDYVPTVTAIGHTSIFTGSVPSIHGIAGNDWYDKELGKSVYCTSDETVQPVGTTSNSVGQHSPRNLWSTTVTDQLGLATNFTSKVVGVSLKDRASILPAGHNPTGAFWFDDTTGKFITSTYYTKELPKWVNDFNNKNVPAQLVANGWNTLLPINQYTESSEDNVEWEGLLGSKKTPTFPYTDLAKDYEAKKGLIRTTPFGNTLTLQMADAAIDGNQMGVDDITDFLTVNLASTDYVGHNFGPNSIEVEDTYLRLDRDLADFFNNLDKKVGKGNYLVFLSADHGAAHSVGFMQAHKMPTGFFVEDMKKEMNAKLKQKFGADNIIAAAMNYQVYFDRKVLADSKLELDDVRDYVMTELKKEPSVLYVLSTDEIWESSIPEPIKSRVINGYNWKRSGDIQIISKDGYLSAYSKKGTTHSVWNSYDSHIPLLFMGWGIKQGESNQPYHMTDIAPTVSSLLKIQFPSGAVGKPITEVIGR
Molecule = PhoQ, residues 284 288 289 292 302 303 SASVAL; target = PhoP, residues 12 14 15 18 19 NFCKL (Escherichia coli, UniProt P23836); test = Sort-seq, measured: YFP reporter; test system = E. coli; conditions = PhoQ-PhoP variant library, added: 10 µM Mg2+; how to read = relative to: high Mg2+ state, higher = stronger signaling; endpoint = fold induction; result = 0.533
Molecule = P1 V339G; target = tungstate, free oxyanion; test = microfluidic competitive inhibition; test system = in vitro, cell-free expressed; conditions = not given, derived from inhibition constants, unchanged parent 2230 nM; how to read = lower = stronger binding; endpoint = oxyanion analog dissociation constant; result = 1.86 µM

A few entries again (other studies, line by line):
Molecule = PhoQ, residues 284 288 289 292 302 303 SASVAL; target = PhoP, residues 12 14 15 18 19 NFCKL (Escherichia coli, UniProt P23836); test = Sort-seq, measured: YFP reporter; test system = E. coli; conditions = PhoQ-PhoP variant library, added: 10 µM Mg2+; how to read = relative to: high Mg2+ state, higher = stronger signaling; endpoint = fold induction; result = 0.533
Molecule = P1 V339G; target = tungstate, free oxyanion; test = microfluidic competitive inhibition; test system = in vitro, cell-free expressed; conditions = not given, derived from inhibition constants, unchanged parent 2230 nM; how to read = lower = stronger binding; endpoint = oxyanion analog dissociation constant; result = 1.86 µM
